Assay results gathered from unrelated publications.
Each line is one published result; not all experiments were run side by side. ± marks the error that the study gave.
U2AF2: U2AF2 148-342 (Homo sapiens, UniProt P26368)
Chain of UniProt P26368 (whole entry, looked up): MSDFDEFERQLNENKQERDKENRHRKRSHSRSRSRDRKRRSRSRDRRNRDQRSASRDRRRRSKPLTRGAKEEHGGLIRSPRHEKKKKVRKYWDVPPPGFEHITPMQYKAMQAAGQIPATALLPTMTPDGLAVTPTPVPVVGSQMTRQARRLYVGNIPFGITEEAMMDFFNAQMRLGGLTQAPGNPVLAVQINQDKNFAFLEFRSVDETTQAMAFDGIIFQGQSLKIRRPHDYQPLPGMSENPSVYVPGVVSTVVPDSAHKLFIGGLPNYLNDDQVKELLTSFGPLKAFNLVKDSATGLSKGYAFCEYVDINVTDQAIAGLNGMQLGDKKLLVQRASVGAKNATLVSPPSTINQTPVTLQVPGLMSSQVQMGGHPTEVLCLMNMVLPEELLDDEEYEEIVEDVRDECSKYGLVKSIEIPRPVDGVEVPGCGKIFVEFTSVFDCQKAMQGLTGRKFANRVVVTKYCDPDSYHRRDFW
Chain of UniProt P29055 (whole entry, looked up): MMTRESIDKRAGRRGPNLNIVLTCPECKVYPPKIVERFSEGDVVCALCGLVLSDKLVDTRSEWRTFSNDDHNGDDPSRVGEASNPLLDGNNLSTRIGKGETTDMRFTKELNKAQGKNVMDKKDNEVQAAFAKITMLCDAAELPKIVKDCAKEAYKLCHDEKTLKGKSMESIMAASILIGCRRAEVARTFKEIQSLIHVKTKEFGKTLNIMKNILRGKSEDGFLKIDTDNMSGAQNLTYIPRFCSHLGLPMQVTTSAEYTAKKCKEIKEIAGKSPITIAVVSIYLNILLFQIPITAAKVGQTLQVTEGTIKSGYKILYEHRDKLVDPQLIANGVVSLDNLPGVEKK
Chain of UniProt Q00535 (whole entry, looked up): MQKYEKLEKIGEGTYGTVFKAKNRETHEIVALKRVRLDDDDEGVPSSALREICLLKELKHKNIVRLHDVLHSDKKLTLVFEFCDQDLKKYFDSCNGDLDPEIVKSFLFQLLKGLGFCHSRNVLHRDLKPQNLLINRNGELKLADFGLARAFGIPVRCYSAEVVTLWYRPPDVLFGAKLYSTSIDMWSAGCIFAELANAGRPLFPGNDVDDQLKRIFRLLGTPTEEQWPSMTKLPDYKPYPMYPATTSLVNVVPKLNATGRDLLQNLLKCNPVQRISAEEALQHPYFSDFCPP

Molecule | tested on | assay | system | conditions | how to read | quantity | result
insulin icodec |  |  | human, end-stage renal disease, serum | subcutaneous, 1.5 U/kg single dose | baseline: normal renal function | AUC(0-inf) increase | 14%
insulin |  | ELISA | Sprague-Dawley rat, serum | subcutaneous, 5 IU/kg |  | time to return to lowest serum level | 4 h
rituximab |  |  | relapsed iNHL patients | dose not given, before third infusion |  | serum concentration | 124 µg/mL
human TAF12 | CYB5R4 knockout human cells | PP4 interaction, 3xFLAG-PP4C IP-MS |  | concentration not given | baseline: CYB5R4 KO over parental | log2 fold change | 0.71
insulin |  |  | gestational diabetes women | dose not given, treated arm |  | adverse event incidence | 16%
insulin degludec |  |  | human | subcutaneous, 0.4 IU/kg, 1 FC level, single dose, reference formulation |  | Tmax, median | 10 h
human ME2 R67A |  | enzyme activity, substrate | recombinant enzyme | pH 7.4, added: no fumarate |  | K0.5 | 0.88 ± 0.13 mM
semaglutide |  |  | Wistar rat, male, diet-induced obese, blood, fasted | subcutaneous, dose not given, after 10 weeks treatment |  | serum AST | 138 ± 18 U/L
human ME2 P78D |  | enzyme activity, substrate | recombinant enzyme | pH 7.4, added: no fumarate |  | K0.5 | 11.4 ± 0.37 mM
Pegcetacoplan |  | population PK model | human | dose not given |  | central volume, typical value | 3.96 L
human ME2 R91A |  | enzyme activity, substrate | recombinant enzyme | pH 7.4, added: fumarate 3 mM |  | K0.5 | 2.43 ± 0.26 mM
ACDDQNPWRAYLDLLFPTDTLLLDLLW |  | ex vivo fluorescence imaging | peptide, BALB/c mice, 4T1 tumour-bearing, muscle | intravenous, 5 nmol, 48 h post-injection | higher = more uptake | mean fluorescence intensity | 201 ± 13.3 a.u.
histone H1.2 human | PP6C (human) | co-immunoprecipitation, IP-MS | CYB5R4 knockout cells | concentration not given | baseline: CYB5R4 knockout over parental | log2 fold change | -0.32
human ME2 I58F |  | enzyme activity, substrate | recombinant enzyme | pH 7.4, added: no fumarate |  | K0.5 | 7.69 ± 0.32 mM
ACEEQNPWARYLEWLFPTETLLLEL |  | ex vivo fluorescence imaging | peptide, BALB/c mice, 4T1 tumour-bearing, 4T1 tumour | intravenous, 5 nmol, 2 h post-injection | higher = more uptake | mean fluorescence intensity | 3270 ± 690 a.u.
durvalumab |  |  | human, plasma | intravenous, 1500 mg, cycle 4 day 1, geometric mean, added: adavosertib 175 mg twice daily |  | Cmax | 379 µg/mL
REAFWDRCLSVINLMSSKMLQINA | Cyclin-dependent kinase 5, with p25 (CDK5, Homo sapiens, UniProt Q00535) | phosphotransferase activity, radiometric | peptide | concentration not given, 10% DMSO, added: histone substrate | baseline: p5-WT peptide | activity change | 28%

Molecule | tested on | assay | system | conditions | how to read | quantity | result
human ME2 E59N |  | enzyme activity, substrate | recombinant enzyme | pH 7.4, added: fumarate 3 mM |  | K0.5 | 23.3 ± 1.58 mM
insulin aspart |  | ELISA | human, younger adults with type 1 diabetes, serum | subcutaneous, 0.2 U/kg |  | Cmax | 0.306 nM
human ME2 I99V |  | enzyme activity, substrate | recombinant enzyme | pH 7.4, added: no fumarate |  | K0.5 | 15.3 ± 0.47 mM
pegcetacoplan |  | measured: eye disorders | patients with PNH | dose not given, phase Ib trial |  | number of TEAEs | 7
GAAAAACATCTAACATAAATATATAAACGCAAACATCAAGTCAATCGGTCC (dsDNA; 5'-amino-C6 primer) | SUA7 full length assumed (Saccharomyces cerevisiae, UniProt P29055) | array | double-stranded DNA, one strand shown | TFIIB alone |  | Kd | 0.8 ± 0.45 nM
human ME2 Q101T |  | enzyme activity, substrate | recombinant enzyme | pH 7.4, added: no fumarate |  | K0.5 | 11.1 ± 0.24 mM
ACEQNPIYWARYADWLFTTPLLLLDLALLVDADEGT |  | ex vivo fluorescence imaging | peptide, BALB/c mice, 4T1 tumour-bearing, 4T1 tumour | intravenous, 5 nmol, 48 h post-injection | higher = more uptake | mean fluorescence intensity | 1000 ± 130 a.u.
adrenomedullin |  | RP-HPLC | HALO RP-amide column | 25 µM, acetic acid/acetonitrile, 25 min gradient |  | retention time | 7.06 min
human ME2 T60S |  | enzyme activity, substrate | recombinant enzyme | pH 7.4, added: fumarate 3 mM |  | K0.5 | 3.19 ± 0.31 mM
CAUGUUUAG (ssRNA) | U2AF2 | sequencing of bound RNA | RNA | motif only |  | Kd | 16000 nM
insulin icodec |  |  | Chinese type 2 diabetes patients | subcutaneous | baseline: steady state over first dose | accumulation ratio for Cmax | 2.09
insulin aspart |  |  | human, type 1 diabetes, plasma | subcutaneous, 0.3 U/kg, geometric mean |  | insulin AUC(0-4h) | 12400 pg·h/mL
Neuropeptide Y |  | RP-HPLC | HALO Peptide ES-C18 column | 25 µM, acetic acid/methanol, 10 min gradient |  | retention time | 10 min
insulin |  | LC-MS/MS | spiked human serum | 4 h, room temperature |  | concentration | 0.0101 µg/mL
insulin aspart |  | ELISA, measured: total insulin aspart | human, type 1 diabetes, serum | subcutaneous, least squares mean, single dose |  | tmax | 1.08 h
CUUUCUCUU (ssRNA) | U2AF2 | sequencing of bound RNA | RNA | motif only |  | Kd | 900 nM
human insulin |  | ELISA | pig, juvenile, anaesthetized, serum | subcutaneous, 20 IU, --20 to +420 min, euglycaemic clamp |  | Cmax | 0.342 ± 0.05 nM

Some of these lines once more:
Molecule | tested on | assay | system | conditions | how to read | quantity | result
insulin degludec |  |  | human | subcutaneous, 0.4 IU/kg, 1 FC level, single dose, reference formulation |  | Tmax, median | 10 h
ACDDQNPWRAYLDLLFPTDTLLLDLLW |  | ex vivo fluorescence imaging | peptide, BALB/c mice, 4T1 tumour-bearing, muscle | intravenous, 5 nmol, 48 h post-injection | higher = more uptake | mean fluorescence intensity | 201 ± 13.3 a.u.
CAUGUUUAG (ssRNA) | U2AF2 | sequencing of bound RNA | RNA | motif only |  | Kd | 16000 nM
CUUUCUCUU (ssRNA) | U2AF2 | sequencing of bound RNA | RNA | motif only |  | Kd | 900 nM
insulin aspart |  | ELISA, measured: total insulin aspart | human, type 1 diabetes, serum | subcutaneous, least squares mean, single dose |  | tmax | 1.08 h
